Measurements from different studies.
Target: Amine oxidase [flavin-containing] A (MAOA, Homo sapiens, UniProt P21397)
UniProt P21397, sequence (whole entry, looked up): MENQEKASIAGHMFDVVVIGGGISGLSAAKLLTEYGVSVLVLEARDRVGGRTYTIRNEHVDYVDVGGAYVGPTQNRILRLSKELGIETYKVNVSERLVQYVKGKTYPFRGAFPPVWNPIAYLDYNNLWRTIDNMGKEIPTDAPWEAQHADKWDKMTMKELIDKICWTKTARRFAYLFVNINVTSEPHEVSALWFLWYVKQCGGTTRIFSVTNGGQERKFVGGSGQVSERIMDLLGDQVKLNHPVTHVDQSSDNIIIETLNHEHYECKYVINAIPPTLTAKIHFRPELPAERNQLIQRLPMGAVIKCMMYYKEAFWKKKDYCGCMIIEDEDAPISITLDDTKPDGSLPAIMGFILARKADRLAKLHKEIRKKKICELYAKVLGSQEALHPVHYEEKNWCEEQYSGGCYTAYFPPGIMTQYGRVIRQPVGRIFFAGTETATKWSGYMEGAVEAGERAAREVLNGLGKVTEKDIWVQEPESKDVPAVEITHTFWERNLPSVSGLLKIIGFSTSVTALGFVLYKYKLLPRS
Effect on: enzyme activity
Action: inhibitor
Concentration: 10 µM

With CNC(=S)N/N=C/c1ccc(OCc2cccc(F)c2)cc1 the remaining activity was 88.8% (absorbance).
O=C(/C=C/c1ccccc1)c1ccc(N2CCNCC2)cc1 has a remaining activity of 96.6%.
The remaining activity of O=C1c2cc(F)ccc2N(Cc2ccccc2)C12CCCC2 is reported as 81.3%.
With NC(=O)N/N=C/c1ccccc1OCc1ccccc1 the remaining activity was 169% (absorbance).
With O=C(/C=C/c1ccc(Br)cc1)c1ccc(N2CCNCC2)cc1 the remaining activity was 98.6%.
The remaining activity of O=C(/C=C/c1ccc(F)cc1)c1cc2ccccc2oc1=O is reported as 88.1%.
S=C(N/N=C/c1cccc(OCc2ccccc2)c1)Nc1ccccc1 gave a remaining activity of 2.13% (absorbance).
The remaining activity of O=C(/C=C/c1ccc(C(F)(F)F)cc1)c1ccc(N2CCNCC2)cc1 is reported as 80.9%.
O=C1c2ccccc2N(Cc2cccc(Br)c2)C12CCCC2 gave a remaining activity of 24.1%.
With O=C(/C=C/c1ccccc1Br)c1cc2ccccc2oc1=O the remaining activity was 86.8%.
For O=C1c2cc(F)ccc2NC12CCCC2, the remaining activity was 68.7%.
S=C(N/N=C/c1ccccc1OCc1ccccc1)Nc1ccccc1 has a remaining activity of 98.3% (absorbance).
For O=C(/C=C/c1ccc(Cl)cc1)c1cc2ccccc2oc1=O, the remaining activity was 86.8%.
The remaining activity of NC(=S)N/N=C/c1ccc(OCc2cccc(F)c2)cc1 is reported as 46.1% (absorbance).
O=C(/C=C/c1ccc(Cl)cc1)c1ccc(N2CCNCC2)cc1 gave a remaining activity of 99.2%.
For CNC(=S)N/N=C/c1ccccc1OCc1ccccc1, the remaining activity was 64.9% (absorbance).
The remaining activity of O=C1c2cc(Cl)ccc2NC12CCCC2 is reported as 79.1%.
With CCc1ccc(/C=C/C(=O)c2ccc(N3CCNCC3)cc2)cc1 the remaining activity was 93.1%.
The remaining activity of O=C(/C=C/c1ccc(Br)cc1)c1cc2ccccc2oc1=O is reported as 87.3%.
N#Cc1ccc(CN2c3ccccc3C(=O)C23CCCC3)cc1 has a remaining activity of 63.5%.
The remaining activity of COc1ccc(/C=C/C(=O)c2ccc(N3CCNCC3)cc2)cc1 is reported as 65.7%.
